Measured values collected from several papers.
Protocols differ between the studies behind these lines. Several values in a cell are separate wells, animals, samples, runs or records. Numbers after ± are the reported error.

The chains behind the UniProt entries cited, without tags or fusion partners.
UniProt P46934, whole entry, looked up: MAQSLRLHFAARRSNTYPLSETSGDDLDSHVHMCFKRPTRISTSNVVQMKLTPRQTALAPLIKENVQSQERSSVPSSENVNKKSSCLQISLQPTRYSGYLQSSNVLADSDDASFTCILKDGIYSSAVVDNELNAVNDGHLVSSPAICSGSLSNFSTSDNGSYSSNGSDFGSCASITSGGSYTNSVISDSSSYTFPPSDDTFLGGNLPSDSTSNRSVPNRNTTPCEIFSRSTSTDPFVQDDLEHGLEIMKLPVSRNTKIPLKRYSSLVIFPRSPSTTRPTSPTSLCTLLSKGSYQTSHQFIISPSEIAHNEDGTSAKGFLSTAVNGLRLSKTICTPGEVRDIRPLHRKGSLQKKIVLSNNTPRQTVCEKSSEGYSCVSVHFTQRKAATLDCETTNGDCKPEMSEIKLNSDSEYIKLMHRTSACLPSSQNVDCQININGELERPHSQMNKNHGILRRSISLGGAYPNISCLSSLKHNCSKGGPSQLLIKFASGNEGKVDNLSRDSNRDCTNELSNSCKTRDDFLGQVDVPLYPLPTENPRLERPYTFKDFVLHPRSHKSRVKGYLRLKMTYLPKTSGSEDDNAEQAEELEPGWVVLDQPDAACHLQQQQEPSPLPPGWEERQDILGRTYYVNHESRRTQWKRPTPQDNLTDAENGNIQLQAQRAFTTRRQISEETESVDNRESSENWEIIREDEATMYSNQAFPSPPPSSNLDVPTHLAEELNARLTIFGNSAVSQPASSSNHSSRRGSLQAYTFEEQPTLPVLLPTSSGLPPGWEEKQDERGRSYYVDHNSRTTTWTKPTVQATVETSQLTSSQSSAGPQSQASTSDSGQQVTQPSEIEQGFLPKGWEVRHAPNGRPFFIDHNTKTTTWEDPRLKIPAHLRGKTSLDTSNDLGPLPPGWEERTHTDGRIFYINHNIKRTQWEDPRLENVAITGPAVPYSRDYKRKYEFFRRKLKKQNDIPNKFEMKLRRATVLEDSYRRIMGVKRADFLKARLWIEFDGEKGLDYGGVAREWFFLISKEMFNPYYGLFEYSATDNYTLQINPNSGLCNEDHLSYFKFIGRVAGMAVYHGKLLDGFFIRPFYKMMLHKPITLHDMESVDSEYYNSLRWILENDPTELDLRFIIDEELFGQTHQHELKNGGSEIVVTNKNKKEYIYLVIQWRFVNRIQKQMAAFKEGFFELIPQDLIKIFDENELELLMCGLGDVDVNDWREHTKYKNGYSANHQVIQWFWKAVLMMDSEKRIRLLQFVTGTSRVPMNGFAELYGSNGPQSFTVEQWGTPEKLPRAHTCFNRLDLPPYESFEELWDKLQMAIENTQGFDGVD

SMILES = C[C@@H]1CN(C2CCC2)CC[C@H](O[C@H]2[C@@H](O)C[C@H](O[C@H]3[C@@H](O)C[C@H](O[C@H]4CC[C@@]5(C)[C@H](CC[C@@H]6[C@@H]5C[C@@H](O)[C@]5(C)[C@@H](C7=CC(=O)OC7)CC[C@]65O)C4)O[C@@H]3C)O[C@@H]2C)O1; test system = rat hippocampal slices; setting = 1 µM, ~14 min, trace 2, added: electrical stimulation; scale = relative to: pre-drug control; endpoint = K+ decay time constant; value = 96 ± 6%
SMILES = CCOc1ccccc1Nc1nnc(SCC(=O)Nc2cc(F)ccc2F)s1; tested on = A549 spheroids with human PBMCs; setting = 25 µM, 48 h, added: soluble anti-CD3; scale = relative to: anti-CD3 alone; endpoint = CD69 reduction; value = > 70%
SMILES = COC(=O)[C@@]1(C)C=C(C(=O)Nc2cccc(C(=O)NC34CC(Nc5nccc(-c6cccnc6)n5)(C3)C4)c2)C(=O)CC1; tested on = Mitogen-activated protein kinase 9 (MAPK9, Homo sapiens, UniProt P45984); test = enzyme activity, inhibitor; setting = 0.0007527 µM; endpoint = remaining activity; value = 1 fraction of control
SMILES = Nc1ncc(-c2ccc3ncnc(N4CCc5cc(F)c(Cl)cc54)c3c2)cn1; test system = CD1 mouse, brain; setting = oral, 100 mg/kg; endpoint = Cmax; value = 17400 ng/mL
SMILES = COC(=O)[C@@H]1C(C=Nc2cncnc2NC(C)=O)=Cc2cc3c(cc2[C@H]1c1cc(OC)c(OC)c(OC)c1)OCO3; tested on = Leishmania; test system = mouse splenocytes; scale = relative to: CC50 over amastigote EC50; endpoint = selectivity index; value = > 6.4
SMILES = Cc1cc(SCc2sc(-c3ccc(F)cc3)nc2C)ccc1OCC(=O)O; tested on = HEK293T; setting = 18 h; endpoint = CC50; value = not toxic
SMILES = CCOC(=O)/C=C/CNCCCCN1c2ccccc2CCc2ccc(Cl)cc21; tested on = E3 ubiquitin-protein ligase NEDD4 (Homo sapiens, UniProt P46934); test = inhibitor, Ub-TR-FRET; setting = 0.1372 µM, 1 h preincubation, HECT domain, added: ATP 2 mM; scale = higher = more ubiquitination; endpoint = ubiquitination TR-FRET signal AUC; value = 79800 a.u. and 83200 a.u. and 84400 a.u. and 130000 a.u. and 84000 a.u. and 78900 a.u.
SMILES = Cc1ncsc1-c1ccc([C@H](C)NC(=O)[C@@H]2C[C@@H](O)CN2C(=O)[C@@H](NC(=O)CCCCCCC(=O)N2CCN(C[C@]3(C)CCC(c4ccc(Cl)cc4)=C(CN4CCN(c5ccc(C(=O)NS(=O)(=O)c6ccc(N[C@H](CCN7CCOCC7)CSc7ccccc7)c(S(=O)(=O)C(F)(F)F)c6)cc5)CC4)C3)CC2)C(C)(C)C)cc1; test system = STAM mice NASH-HCC model, liver; setting = intraperitoneal, 5 mg/kg twice weekly, day 90, from day 45; endpoint = SA-β-gal staining; value = decreased
SMILES = CCOC(=O)C1=C(C)NC2=C(C(=O)CC(C)(C)C2)C1c1ccc(OCC(=O)NN=Cc2cccc(C=O)c2)cc1OCC(=O)NN=Cc1cccc(C=O)c1 (stereo not shown); tested on = Staphylococcus aureus; test system = 6538 P; setting = concentration not given, 24 h; endpoint = inhibition zone diameter; value = 7.3 ± 0.1 mm
SMILES = CCn1nccc1N=CC1=Cc2cc3c(cc2[C@@H](c2cc(OC)c(OC)c(OC)c2)[C@@H]1C(=O)OC)OCO3; tested on = Leishmania infantum; test system = promastigote, iRFP; endpoint = EC50; value = 14.2 ± 2.1 µM
SMILES = C=CC(=O)N1CCC(c2cc(Nc3cc4n(n3)CCOC4)c3ncnn3c2)C1 (single isomer, unassigned); tested on = TMD8; test = calcium flux, FLIPR; setting = 4 h preincubation, added: anti-IgM; endpoint = IC50; value = > 1 µM
SMILES = CCC1NC(=O)C(CCCNC(=N)N)NC(=O)C(C)(NC(=O)C(C)C)CCCCNC(=O)C(c2ccccc2)NC1=O (stereo not shown); test = immunoblot; test system = MLL-AF9 leukaemia cells, mouse; setting = dose not given, 4 days; endpoint = global H3K4 methylation; value = no effect
SMILES = CCCCNCC1=Cc2cc3c(cc2[C@@H](c2cc(OC)c(OC)c(OC)c2)[C@@H]1C(=O)OC)OCO3; tested on = Leishmania infantum; test = iRFP fluorescence; test system = mouse splenocytes infected, amastigote, iRFP, ex vivo splenic explant; setting = 48 h; endpoint = EC50; value = 31.7 ± 2.1 µM
